Experimental data pooled from the literature.
Compare with care: the assays were run in different laboratories. Square brackets hold non-standard residues; d marks the D form. Ends that are not written are not given here. No end group written: not given here.
B1: BMP2 mature (Homo sapiens, UniProt P12643); sequence looked up; chain QAKHKQRKRLKSSCKRHPLYVDFSDVGWNDWIVAPPGYHAFYCHGECPFPLADHLNSTNHAIVQTLVNSVNSKIPKACCVPTELSAISMLYLDENEKVVLKNYQDMVVEGCGCR
B2: RRP6 128-685 (Saccharomyces cerevisiae, UniProt Q12149); sequence looked up; chain RVEKPQLKFKSPIDNSESHPFIPLLKEKPNALKPLSESLRLVDDDENNPSHYPHPYEYEIDHQEYSPEILQIREEIPSKSWDDSVPIWVDTSTELESMLEDLKNTKEIAVDLEHHDYRSYYGIVCLMQISTRERDYLVDTLKLRENLHILNEVFTNPSIVKVFHGAFMDIIWLQRDLGLYVVGLFDTYHASKAIGLPRHSLAYLLENFANFKTSKKYQLADWRIRPLSKPMTAYARADTHFLLNIYDQLRNKLIESNKLAGVLYESRNVAKRRFEYSKYRPLTPSSEVYSPIEKESPWKILMYQYNIPPEREVLVRELYQWRDLIARRDDESPRFVMPNQLLAALVAYTPTDVIGVVSLTNGVTEHVRQNAKLLANLIRDALRNIKNTNEEATPIPSSETKADGILLETISVPQIRDVMERFSVLCNSNISKSRAKPVTNSSILLGKILPREEHDIAYSKDGLPNKVKTEDIRIRAQNFKSALANLEDIIFEIEKPLVVPVKLEEIKTVDPASAPNHSPEIDNLDDLVVLKKKNIQKKQPAKEKGVTEKDAVDYSKIP
B3: ATG10 1-167 C26S/C137S (Saccharomyces cerevisiae, UniProt Q07879); Cys133 BMOE-reacted; chain MIPYQEWHSQLQSLYDSQIFHNWALSQDVHLNDEKDGLLLRLIPTRQLQKNTERIENKLLNHIELYLTYSKVYNEPLLLLRIWEEKSIDGIPMTKLMLPTDIESLLDVQGKFQLGLDTIINLEGSVWYSFHPCDTSSIVGDQAEFMSTYLRRWVSIFIFSWLGYEDS
B4: KIF5A full-length homodimer (Mus musculus, UniProt P33175); sequence looked up; chain MAETNNECSIKVLCRFRPLNQAEILRGDKFIPIFQGDDSVIIGGKPYVFDRVFPPNTTQEQVYHACAMQIVKDVLAGYNGTIFAYGQTSSGKTHTMEGKLHDPQLMGIIPRIARDIFNHIYSMDENLEFHIKVSYFEIYLDKIRDLLDVTKTNLSVHEDKNRVPFVKGCTERFVSSPEEILDVIDEGKSNRHVAVTNMNEHSSRSHSIFLINIKQENVETEQKLSGKLYLVDLAGSEKVSKTGAEGAVLDEAKNINKSLSALGNVISALAEGTKSYVPYRDSKMTRILQDSLGGNCRTTMFICCSPSSYNDAETKSTLMFGQRAKTIKNTASVNLELTAEQWKKKYEKEKEKTKAQKETIAKLEAELSRWRNGENVPETERLAGEDSALGAELCEETPVNDNSSIVVRIAPEERQKYEEEIRRLYKQLDDKDDEINQQSQLIEKLKQQMLDQEELLVSTRGDNEKVQRELSHLQSENDAAKDEVKEVLQALEELAVNYDQKSQEVEEKSQQNQLLVDELSQKVATMLSLESELQRLQEVSGHQRKRIAEVLNGLMRDLSEFSVIVGNGEIKLPVEISGAIEEEFTVARLYISKIKSEVKSVVKRCRQLENLQVECHRKMEVTGRELSSCQLLISQHEAKIRSLTEYMQTVELKKRHLEESYDSLSDELARLQAHETVHEVALKDKEPDTQDAEEVKKALELQMENHREAHHRQLARLRDEINEKQKTIDELKDLNQKLQLELEKLQADYERLKNEENEKSAKLQELTFLYERHEQSKQDLKGLEETVARELQTLHNLRKLFVQDVTTRVKKSAEMEPEDSGGIHSQKQKISFLENNLEQLTKVHKQLVRDNADLRCELPKLEKRLRATAERVKALEGALKEAKEGAMKDKRRYQQEVDRIKEAVRYKSSGKRGHSAQIAKPVRPGHYPASSPTNPYGTRSPECISYTNNLFQNYQNLHLQAAPSSTSDMYFASSGATSVAPLASYQKANMDNGNATDINDNRSDLPCGYEAEDQAKLFPLHQETAAS
B5: BAK1 26-225 T52F (Arabidopsis thaliana, UniProt Q94F62); sequence looked up; chain NAEGDALSALKNSLADPNKVLQSWDAFLVTPCTWFHVTCNSDNSVTRVDLGNANLSGQLVMQLGQLPNLQYLELYSNNITGTIPEQLGNLTELVSLDLYLNNLSGPIPSTLGRLKKLRFLRLNNNSLSGEIPRSLTAVLTLQVLDLSNNPLTGDIPVNGSFSLFTPISFANTKLTPLPASPPPPISPTPPSPAGSNRITG
B6: RNF7 5-113 (Homo sapiens, UniProt Q9UBF6); chain EDGEETCALASHSGSSGSKSGGDKMFSLKKWNAVAMWSWDVECDTCAICRVQVMDACLRCQAENKQEDCVVVWGECNHSFHNCCMSLWVKQNNRCPLCQQDWVVQRIGK
B7: SEC72 (Saccharomyces cerevisiae, UniProt P39742); lysines PEGylated; sequence looked up; chain MVTLEYNANSKLITASDAVVALSTETNIDQINVLTTSLIGETNPNFTPQPNEALSKMIKGLFESGMKNLQQKKLNEALKNVSLAIEMAQRKRAPWEAFAIQLPELHFMLRSKIDLCLILGKHLEALQDLDFLLGTGLIQPDVFVRKADCLLKLRQWEEARATCERGLALAPEDMKLRALLIETARNLAEYNGE
B8: LAG3 cytoplasmic tail 475-525 (Homo sapiens); also: AF647 label in some assays, position not given here; chain {H2N-H2N-H2N-H2N-H2N}-RRQWRPRRFSALEQGIHPPQAQSKIEELEQEPEPEPEPEPEPEPEPEPEQLC
B9: Nup98 732-880 (Mus musculus, UniProt Q6PFD9); sequence looked up; chain AGIVLTKVGYYTIPSMDDLAKITNEKGECIVSDFTIGRKGYGSIYFEGDVNLTNLNLDDIVHIRRKEVIVYVDDNQKPPVGEGLNRKAEVTLDGVWPTDKTSRCLIKSPDRLADINYEGRLEAVSRKQGAQFKEYRPETGSWVFKVSHF
UniProt O95376, sequence (whole entry, unmodified, looked up): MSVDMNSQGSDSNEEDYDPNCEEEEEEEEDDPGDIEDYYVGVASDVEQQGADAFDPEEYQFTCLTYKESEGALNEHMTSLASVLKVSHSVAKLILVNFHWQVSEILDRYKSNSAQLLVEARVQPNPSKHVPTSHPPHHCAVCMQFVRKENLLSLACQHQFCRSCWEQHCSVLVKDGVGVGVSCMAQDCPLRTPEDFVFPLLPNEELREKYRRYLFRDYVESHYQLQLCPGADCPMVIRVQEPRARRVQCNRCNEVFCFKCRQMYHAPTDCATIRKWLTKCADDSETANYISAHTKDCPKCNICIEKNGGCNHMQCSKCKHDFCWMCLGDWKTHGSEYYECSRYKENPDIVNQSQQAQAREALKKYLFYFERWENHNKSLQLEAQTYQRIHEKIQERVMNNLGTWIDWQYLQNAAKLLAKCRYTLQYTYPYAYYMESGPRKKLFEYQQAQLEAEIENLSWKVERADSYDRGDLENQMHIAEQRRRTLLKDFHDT
UniProt P33754, sequence (whole entry, looked up): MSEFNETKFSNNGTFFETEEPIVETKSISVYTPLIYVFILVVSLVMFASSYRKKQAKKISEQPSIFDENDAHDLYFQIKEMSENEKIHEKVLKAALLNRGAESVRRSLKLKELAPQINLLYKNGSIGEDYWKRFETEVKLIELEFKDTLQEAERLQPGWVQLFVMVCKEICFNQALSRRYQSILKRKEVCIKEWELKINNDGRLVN
UniProt Q9UQ84, sequence (whole entry, looked up): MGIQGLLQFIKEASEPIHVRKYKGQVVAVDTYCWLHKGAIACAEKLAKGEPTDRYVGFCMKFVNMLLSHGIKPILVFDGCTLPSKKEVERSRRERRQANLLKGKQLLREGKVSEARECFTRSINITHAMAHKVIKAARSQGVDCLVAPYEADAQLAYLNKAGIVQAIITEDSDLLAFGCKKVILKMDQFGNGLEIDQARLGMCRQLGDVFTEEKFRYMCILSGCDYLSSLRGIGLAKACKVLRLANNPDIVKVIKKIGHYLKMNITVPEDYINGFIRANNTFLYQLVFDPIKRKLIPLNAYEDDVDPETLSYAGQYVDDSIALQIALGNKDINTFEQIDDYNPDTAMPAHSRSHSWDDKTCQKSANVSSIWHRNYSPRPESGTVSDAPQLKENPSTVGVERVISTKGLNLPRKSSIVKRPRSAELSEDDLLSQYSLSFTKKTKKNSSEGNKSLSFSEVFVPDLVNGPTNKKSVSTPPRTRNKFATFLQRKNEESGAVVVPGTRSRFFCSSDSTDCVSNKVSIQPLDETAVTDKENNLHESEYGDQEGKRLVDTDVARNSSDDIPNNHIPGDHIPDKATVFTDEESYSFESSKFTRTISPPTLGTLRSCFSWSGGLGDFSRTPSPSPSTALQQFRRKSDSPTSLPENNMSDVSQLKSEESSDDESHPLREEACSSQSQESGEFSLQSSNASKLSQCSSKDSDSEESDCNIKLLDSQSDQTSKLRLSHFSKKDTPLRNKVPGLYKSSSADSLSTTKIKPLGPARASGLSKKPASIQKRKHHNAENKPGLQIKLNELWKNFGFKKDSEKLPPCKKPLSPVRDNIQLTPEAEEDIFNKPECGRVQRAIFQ
UniProt P38862, sequence (whole entry, unmodified, looked up): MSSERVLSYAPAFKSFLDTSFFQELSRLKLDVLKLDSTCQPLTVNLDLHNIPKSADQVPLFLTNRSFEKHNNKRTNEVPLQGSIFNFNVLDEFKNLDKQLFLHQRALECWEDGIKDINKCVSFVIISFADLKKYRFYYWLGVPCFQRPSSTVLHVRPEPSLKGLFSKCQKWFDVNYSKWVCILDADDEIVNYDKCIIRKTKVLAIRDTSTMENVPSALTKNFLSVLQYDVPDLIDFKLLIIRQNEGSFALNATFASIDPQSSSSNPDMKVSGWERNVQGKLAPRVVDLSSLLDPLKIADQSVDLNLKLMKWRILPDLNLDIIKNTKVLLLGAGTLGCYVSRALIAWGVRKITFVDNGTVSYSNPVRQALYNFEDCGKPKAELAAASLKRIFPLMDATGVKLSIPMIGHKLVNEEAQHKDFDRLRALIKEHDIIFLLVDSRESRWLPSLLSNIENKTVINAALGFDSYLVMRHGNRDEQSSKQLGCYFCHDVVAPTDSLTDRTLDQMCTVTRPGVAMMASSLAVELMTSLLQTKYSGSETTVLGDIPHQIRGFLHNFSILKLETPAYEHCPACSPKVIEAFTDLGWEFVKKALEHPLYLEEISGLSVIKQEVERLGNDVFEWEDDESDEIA
UniProt Q14653, sequence (whole entry, looked up): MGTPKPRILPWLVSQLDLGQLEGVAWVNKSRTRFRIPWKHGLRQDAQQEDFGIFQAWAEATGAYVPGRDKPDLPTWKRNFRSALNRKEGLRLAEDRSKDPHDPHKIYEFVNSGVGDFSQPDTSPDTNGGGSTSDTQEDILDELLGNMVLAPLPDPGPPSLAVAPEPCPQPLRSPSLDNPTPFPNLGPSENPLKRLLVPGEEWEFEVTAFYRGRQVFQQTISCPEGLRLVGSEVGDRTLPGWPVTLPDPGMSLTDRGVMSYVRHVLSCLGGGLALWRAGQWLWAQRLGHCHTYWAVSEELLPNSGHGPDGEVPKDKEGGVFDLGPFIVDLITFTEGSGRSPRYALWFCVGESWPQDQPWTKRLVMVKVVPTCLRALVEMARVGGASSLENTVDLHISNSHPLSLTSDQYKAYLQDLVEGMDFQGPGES
UniProt P46948, sequence (whole entry, looked up): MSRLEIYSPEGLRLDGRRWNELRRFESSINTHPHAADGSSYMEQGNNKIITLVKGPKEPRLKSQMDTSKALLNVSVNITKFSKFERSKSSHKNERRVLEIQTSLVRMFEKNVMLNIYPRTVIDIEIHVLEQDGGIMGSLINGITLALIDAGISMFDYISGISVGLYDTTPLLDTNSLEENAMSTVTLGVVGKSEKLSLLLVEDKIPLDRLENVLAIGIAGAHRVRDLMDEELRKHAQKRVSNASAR
UniProt P40368, sequence (whole entry, unmodified, looked up): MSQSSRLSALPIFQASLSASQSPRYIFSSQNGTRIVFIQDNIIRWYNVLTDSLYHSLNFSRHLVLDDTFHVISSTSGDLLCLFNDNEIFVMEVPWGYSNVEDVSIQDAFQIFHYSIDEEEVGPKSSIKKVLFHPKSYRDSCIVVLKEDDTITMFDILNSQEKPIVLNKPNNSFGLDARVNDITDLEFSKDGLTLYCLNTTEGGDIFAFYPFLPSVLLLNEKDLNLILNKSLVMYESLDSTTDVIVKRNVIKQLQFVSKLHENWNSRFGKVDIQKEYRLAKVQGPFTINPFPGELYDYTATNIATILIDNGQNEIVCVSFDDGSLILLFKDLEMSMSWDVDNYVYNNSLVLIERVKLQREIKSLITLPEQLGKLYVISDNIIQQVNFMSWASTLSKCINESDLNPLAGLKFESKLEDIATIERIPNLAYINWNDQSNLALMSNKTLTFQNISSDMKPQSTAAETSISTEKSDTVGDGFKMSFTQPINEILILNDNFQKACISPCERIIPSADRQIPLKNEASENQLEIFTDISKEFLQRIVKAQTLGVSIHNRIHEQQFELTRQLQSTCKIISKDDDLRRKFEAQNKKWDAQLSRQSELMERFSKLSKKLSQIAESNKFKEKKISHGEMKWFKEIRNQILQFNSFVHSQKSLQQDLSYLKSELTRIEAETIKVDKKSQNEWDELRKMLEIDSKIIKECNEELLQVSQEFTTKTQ
UniProt Q08162, sequence (whole entry, looked up): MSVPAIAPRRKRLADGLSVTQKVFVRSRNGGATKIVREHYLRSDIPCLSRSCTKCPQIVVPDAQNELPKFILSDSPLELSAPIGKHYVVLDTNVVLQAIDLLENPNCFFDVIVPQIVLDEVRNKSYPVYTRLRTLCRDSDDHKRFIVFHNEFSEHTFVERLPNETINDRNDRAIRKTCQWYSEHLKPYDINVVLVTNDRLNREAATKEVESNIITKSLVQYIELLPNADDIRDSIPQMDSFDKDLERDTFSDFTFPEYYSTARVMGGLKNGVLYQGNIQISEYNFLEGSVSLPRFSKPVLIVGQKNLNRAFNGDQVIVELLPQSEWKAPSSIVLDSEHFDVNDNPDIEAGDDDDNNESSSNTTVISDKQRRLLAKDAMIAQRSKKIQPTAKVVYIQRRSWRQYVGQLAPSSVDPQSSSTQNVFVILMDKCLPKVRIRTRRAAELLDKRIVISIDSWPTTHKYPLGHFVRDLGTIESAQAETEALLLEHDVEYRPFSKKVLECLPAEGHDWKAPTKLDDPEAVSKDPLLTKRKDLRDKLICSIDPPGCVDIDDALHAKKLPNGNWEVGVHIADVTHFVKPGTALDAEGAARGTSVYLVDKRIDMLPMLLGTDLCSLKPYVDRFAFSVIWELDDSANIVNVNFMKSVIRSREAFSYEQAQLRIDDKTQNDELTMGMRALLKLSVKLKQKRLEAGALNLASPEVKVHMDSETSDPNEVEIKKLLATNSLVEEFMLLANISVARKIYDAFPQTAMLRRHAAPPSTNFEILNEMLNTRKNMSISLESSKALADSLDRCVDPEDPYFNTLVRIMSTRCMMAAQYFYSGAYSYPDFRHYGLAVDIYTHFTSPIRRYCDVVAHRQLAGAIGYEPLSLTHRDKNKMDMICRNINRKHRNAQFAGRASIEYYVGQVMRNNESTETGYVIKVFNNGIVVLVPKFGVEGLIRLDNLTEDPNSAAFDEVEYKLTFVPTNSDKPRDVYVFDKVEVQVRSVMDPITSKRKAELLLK

GDPGSEIIESVPPAGPEASESTTDENEDDIQFVSEGPLRPVLEYIDLVSSDDEEP (ZNF451 2-56 (Homo sapiens, UniProt Q9Y4E5)) — binding (SUMO2 15-93, isopeptide to RANGAP1 (Homo sapiens, UniProt P61956); crystal structure): binds
ALQDLLRTLKSPSSPQQQQQVLNILKSNPQLMAAFIKQRTAKYVAN (CREBBP 2066-2111 (Homo sapiens, UniProt Q92793); sequence looked up) — binding (IRF3 189-427, phosphorylated by TBK1 (Homo sapiens, UniProt Q14653); SEC): binds
B1 (BMP2 mature) — binding (BMPR2 extracellular domain, Fc fusion 27-150, glycosylated (Homo sapiens, UniProt Q13873-1); pull-down): binds
EXO1 (Homo sapiens, UniProt Q9UQ84) — binding (CTC1/STN1/TEN1 2-1217 K290E/R292E/R295E; pull-down): binds
B2 (RRP6 128-685) — binding (Exo9 core (Saccharomyces cerevisiae, UniProt P46948); reconstitution and purification): binds
fluorescein-SPT[pS]PSY[pS]PTS (POLR2A CTD peptide consensus heptads, 11-aa; N-fluorescein, pS4, pS8; fluorescein = fluorescein label (fluorescent) on the peptide N-terminus; pS = N[C@@H](COP(=O)(O)O)C(=O)O) — binding (Rngtt 227-567 R330A (Mus musculus, UniProt O55236); fluorescence polarisation; peptide; pH 7.0, 23 °C): binds
DIS3 (Saccharomyces cerevisiae, UniProt Q08162) — binding (RRP45/SKI6/RRP43/RRP46/RRP42/MTR3/RRP4/RRP40/CSL4 Exo9 core 1-305 (Saccharomyces cerevisiae); reconstitution, SDS-PAGE): binds
GRRYVDMTSIFDAMLN (POL1 1453-1468 F1465A (Saccharomyces cerevisiae, UniProt P13382); sequence looked up) — binding (PRI1/PRI2 PRI1 1-409, PRI2 49-513 del382-384 (Saccharomyces cerevisiae); pull-down; peptide; 2 h, pH 7.0, 4 °C): binds
B3 (ATG10 1-167 C26S/C137S) — binding (ATG7 1-613 C39S/C195S/C375A, BMOE crosslink to Atg10 (Saccharomyces cerevisiae, UniProt P38862); X-ray crystallography; catalytic cysteines crosslinked): binds
B4 (KIF5A full-length homodimer) — binding (APC, SNAP-tag label (UniProt Q61315); TIRF-M motility reconstitution): binds
B5 (BAK1 26-225 T52F) — binding (HAESA/IDA HAESA ectodomain; IDA 15-621, hydroxyproline in IDA (Arabidopsis thaliana); ITC; pH 5.0, 25 °C): binds
B6 (RNF7 5-113) — binding (ARIH2 L381A/E382A/E455A (Homo sapiens, UniProt O95376); cryo-EM): binds
B7 (SEC72) — binding (SEC66, glycosylated; lysines PEGylated (Saccharomyces cerevisiae, UniProt P33754); cryo-EM): binds
GYSEVNLSKLFAGCAVKS (POLA1 residues 1445-1462, GST fusion (Homo sapiens)) — binding (PRIM1/PRIM2 PRIM1 1-420, PRIM2 1-462 K72A/M73A (Homo sapiens); pull-down; peptide; 2 h, pH 7.0, 4 °C): binds
B8 (LAG3 cytoplasmic tail 475-525) — binding (CD8A cytoplasmic tail 209-227, TAMRA label (Homo sapiens); confocal microscopy; phase separation, planar lipid bilayers): binds
B9 (Nup98 732-880) — binding (NUP82 1-452 del172-176/C396S (Saccharomyces cerevisiae, UniProt P40368); SEC): binds

Repeated from above:
EXO1 (Homo sapiens, UniProt Q9UQ84) — binding (CTC1/STN1/TEN1 2-1217 K290E/R292E/R295E; pull-down): binds
